Measurements collected from several papers.
Numbers after ± are the reported error.
GPR39: G-protein coupled receptor 39 (GPR39, Homo sapiens, UniProt O43194)
folP: Dihydropteroate synthase (folP, Bacteria, UniProt P0AC13)
SLC6A3: Sodium-dependent dopamine transporter (SLC6A3, Homo sapiens, UniProt Q01959)

Structure (SMILES) | target | assay | test system | conditions | EC50
CC(CCC(=O)NCCS(=O)(=O)O)C1CCC2C3CCC4CC(OS(=O)(=O)O)CCC4(C)C3CCC12C (centres unmarked) | GPR39 | calcium signal, agonist, fluorescence | – | – | 69400 nM
CC(C(=O)O)c1nn(C)c2nc(N)[nH]c(=O)c2c1=O (centres unmarked) | folP | thermal stabilisation, lysate HiBiT CETSA | – | 63 °C, tested 0.01 to 200 µM | 2540 nM
O=C(O)CCCCCC[C@H]1C(=O)NC(=O)N1CC[C@@H](O)C1CCCCC1 | Prostaglandin D2 receptor (PTGDR, Homo sapiens, UniProt Q13258) | agonist | – | – | 0.912 nM
CC(C)Oc1cc(Cl)ccc1CNc1cc(-c2ccccc2)nc2ncnn12 | G-protein coupled receptor 3 (GPR3, Homo sapiens, UniProt P46089, L159A) | cAMP level, agonist, cAMP GloSensor | – | L159A mutant | 358 nM
CSc1ccc2c(c1)C(N1CCN(C)CC1)Cc1ccccc1S2 (centres unmarked) | 5-hydroxytryptamine receptor 1E (HTR1E, Homo sapiens, UniProt P28566) | G protein activation, agonist, BRET | – | – | 44.3 nM
CCOC(=O)C12CC1C(n1cnc3c(NC)nc(C#Cc4ccc(Br)s4)nc31)C(O)C2O (centres unmarked) | SLC6A3 | ligand displacement, radioligand | – | – | 160 nM
[N-]=[N+]=Nc1c(C2CC2)cc(CC(=O)NC2(C(=O)O)CCCCC2)cc1C1CC1 | PYL8 (Arabidopsis thaliana, UniProt Q9FGM1) | phosphatase activity recovery, antagonist | – | with: HAB1, ABA 5000 nM | 12800 ± 1700 nM
CSCC[C@H](NC(=O)[C@H](CCCN=C(N)N)NC(=O)[C@H](Cc1ccc(O)cc1)NC(=O)[C@@H]1CCCN1C(=O)CNC(=O)[C@H](CCC(=O)O)NC(=O)[C@H](CC(=O)O)NC(=O)[C@H](CCCCN)NC(=O)[C@H](CCCCN)NC(=O)[C@H](CCC(=O)O)NC(=O)[C@H](C)N)C(=O)N[C@@H](CCC(=O)O)C(=O)N[C@@H](Cc1c[nH]cn1)C(=O)N[C@@H](Cc1ccccc1)C(=O)N[C@@H](CCCN=C(N)N)C(=O)N[C@@H](Cc1c[nH]c2ccccc12)C(=O)NCC(=O)N[C@@H](CO)C(=O)N1CCC[C@H]1C(=O)N1CCC[C@H]1C(=O)N[C@@H](CCCCN)C(=O)N[C@@H](CC(=O)O)C(=O)O | Melanocortin receptor 3 (MC3R, Homo sapiens, UniProt P41968) | cAMP, agonist | – | – | 0.31 nM
O=C(NC[C@@H](Cc1ccc(F)cc1)N1CCC(O)(C(F)(F)F)CC1)C1(c2ccc(Cl)cc2)CCCC1 | Transient receptor potential cation channel subfamily A member 1 (TRPA1, Homo sapiens, UniProt O75762, I878A) | – | – | – | 77 nM
C[C@H](CCC(=O)O)[C@H]1CC[C@H]2[C@@H]3CC[C@@H]4C[C@H](OS(=O)(=O)O)CC[C@]4(C)[C@H]3CC[C@]12C | GPR39 | calcium flux, agonist, FLIPR | – | with: Zn2+ 4 µM | 1800 ± 800 nM
CC(C)(C(=O)N1CCC(Nc2nc3c(c(=O)[nH]2)CCCC3)CC1)c1ccc(Cl)cc1 | MRGPRD (Homo sapiens, UniProt Q8TDS7) | miniGq recruitment, BRET1 | HEK293T | wild type | 60 nM
Nc1ncnc2c1ncn2[C@@H]1O[C@H](COP(=O)(O)OP(=O)(O)OC[C@H]2OC(O)[C@H](O)[C@@H]2O)[C@@H](O)[C@H]1OP(=O)(O)O (some centres unmarked) | TRPM2 (Nematostella vectensis, UniProt A7T1N0, H1174C) | agonist | – | – | 100 ± 6 nM
COc1cc(C2C(NC(=O)c3ccc(NC(=O)OC(C)(C)C)cc3)(C(=O)O)C(c3ccc(OC(=O)c4cccs4)c(OC)c3)C2(NC(=O)c2ccc(NC(=O)OC(C)(C)C)cc2)C(=O)O)ccc1OC(=O)c1cccs1 (centres unmarked) | Glucagon-like peptide 1 receptor (GLP1R, Homo sapiens, UniProt P43220, Y152A) | cAMP, agonist | – | – | 151 nM
COC(=O)CC(C)c1n[nH]c2nc(N)[nH]c(=O)c2c1=O (centres unmarked) | folP | thermal stabilisation, lysate HiBiT CETSA | – | 63 °C, tested 0.01 to 200 µM | > 200000 nM
CCc1cc(O)cc2c(/C=N/NC(=N)NCCc3ccc(Cl)cc3)c[nH]c12 | Relaxin-3 receptor 2 (RXFP4, Homo sapiens, UniProt Q8TDU9, V122S) | agonist | – | – | 18.6 nM
CNC(=O)C12CC1C(n1cnc3c(NC)nc(C#Cc4ccccc4Cl)nc31)C(O)C2O (centres unmarked) | SLC6A3 | ligand displacement, radioligand | – | – | 4100 nM
COc1ccc(NC(=O)C2CC(C)CCC2C(C)C)cc1 (centres unmarked) | Transient receptor potential cation channel subfamily M member 8 (TRPM8, Homo sapiens, UniProt Q7Z2W7) | ion current, agonist, automated patch clamp | HEK293T | holding potential 100 to -60 mV | 3630 nM
CSCC[C@H](NC(=O)[C@H](CC(C)C)NC(=O)CNC(=O)[C@H](Cc1ccccc1)NC(=O)[C@H](Cc1ccccc1)NC(=O)[C@@H](N)CCC(N)=O)C(N)=O | Substance-P receptor (TACR1, Homo sapiens, UniProt P25103, H108A) | agonist | – | concentration not given | 100 nM
Cn1c(=O)n(C2CCC(=O)NC2=O)c2ccc(C3CCN(CC(=O)Nc4cccc(CS(=O)(=O)N5CC[C@H](Nc6cccc(-c7sc(C(=O)O)c(OCC(=O)O)c7Cl)c6)CC5(C)C)c4)CC3)cc21 (some centres unmarked) | Tyrosine-protein phosphatase non-receptor type 1 (PTPN1, Homo sapiens, UniProt P18031) | phosphatase activity | – | with: DiFMUP substrate | 27.4 nM
COc1ccc(C(=O)c2c(C(=O)NCCCN(C)C)oc3ccc(Cl)cc3c2=O)cc1OC | Growth hormone secretagogue receptor type 1 (GHSR, Homo sapiens, UniProt Q92847, A204E) | beta-arrestin-2 recruitment, NanoBiT | HEK293T | – | 2690 nM

For quick reference, copied from above:
Structure (SMILES) | target | assay | test system | conditions | EC50
CC(C(=O)O)c1nn(C)c2nc(N)[nH]c(=O)c2c1=O (centres unmarked) | folP | thermal stabilisation, lysate HiBiT CETSA | – | 63 °C, tested 0.01 to 200 µM | 2540 nM
Cn1c(=O)n(C2CCC(=O)NC2=O)c2ccc(C3CCN(CC(=O)Nc4cccc(CS(=O)(=O)N5CC[C@H](Nc6cccc(-c7sc(C(=O)O)c(OCC(=O)O)c7Cl)c6)CC5(C)C)c4)CC3)cc21 (some centres unmarked) | Tyrosine-protein phosphatase non-receptor type 1 (PTPN1, Homo sapiens, UniProt P18031) | phosphatase activity | – | with: DiFMUP substrate | 27.4 nM
